Measurements gathered from unrelated publications.
± gives the spread as reported. Values after ≈ are worked out from the molar mass of the structure shown.

| Molecule | tested on | test | system | conditions | how to read | quantity | result |
| --- | --- | --- | --- | --- | --- | --- | --- |
| CN[C@@H]1C[C@H]2O[C@@](C)([C@@H]1OC)n1c3ccccc3c3c4c(c5c6ccccc6n2c5c31)C(=O)NC4 | MCF7 | annexin V/PI | – | 2.5 µM, 24 h | – | late apoptotic cells | 19% |
| O=C1NC(=S)NC(=O)C1=Cc1cn(Cc2ccc3ccccc3c2)c2ccc(Cl)cc12 | HAP1 hpol η-proficient | immunoblot | – | 0.1 or 1 µM, together with: cisplatin 0.5 µM | relative to: DMSO | γH2AX level | ~3 fold |
| CC[C@H](C)[C@H](NC(=O)[C@H](CCCCN)NC(=O)[C@@H](NC(=O)[C@H](CCC(N)=O)NC(=O)[C@H](CCCNC(=N)N)NC(=O)[C@@H](N)CC(=O)O)[C@@H](C)CC)C(=O)N[C@@H](Cc1c[nH]c2ccccc12)C(=O)N[C@@H](Cc1ccccc1)C(=O)N[C@@H](CCC(N)=O)C(=O)N[C@@H](CC(N)=O)C(=O)N[C@@H](CCCNC(=N)N)C(=O)N[C@@H](CCCNC(=N)N)C(=O)N[C@@H](CCSC)C(=O)N[C@@H](CCCCN)C(=O)N[C@@H](Cc1c[nH]c2ccccc12)C(=O)N[C@@H](CCCCN)C(=O)N[C@@H](CCCCN)C(=O)N[C@H](C(=O)N[C@@H](C)C(=O)N[C@@H](CC(C)C)C(=O)N[C@@H](CC(=O)O)C(=O)N[C@@H](Cc1c[nH]c2ccccc12)C(=O)N[C@@H](CO)C(=O)N[C@@H](Cc1c[nH]c2ccccc12)C(=O)N[C@@H](CC(C)C)C(=O)N[C@@H](CCC(N)=O)C(=O)N[C@H](C(=O)N[C@@H](CCC(=O)O)C(=O)O)[C@@H](C)O)[C@@H](C)O | human PBMC | inhibitor | – | concentration not given, 2 h, together with: LPS 10 ng/mL | – | TNF-α production | inhibited |
| leucinostatin D | MDA-MB-453 | sulforhodamine B | – | 48 h, LAR subtype TNBC | – | GI50 | 2.3 ± 0.3 nM |
| CCS(=O)(=O)Nc1cccc(C(=C2CCCCC2)c2cnc[nH]2)c1 | U2OS | NAADP-evoked Ca2+ release | – | 10 µM, 10 min pretreatment, together with: NAADP 100 nM microinjected | relative to: NAADP alone | Ca2+ transient amplitude | 41.1 ± 14% |
| O=C1NC(=O)/C(=C/C(=O)N2N=C(c3ccc4ccccc4c3)CC2c2ccc(Cl)cc2)S1 (centres unmarked) | NCI-60 tumour cell panel | SRB | – | – | – | TGI mean graph midpoint | 51000 nM |
| CN[C@@](C)(C[18F])C(=O)O | – | – | SCID mouse SK-OV-3 xenograft, brain | 60 min, post injection | – | tissue uptake | 0.2 ± 0.03 %ID/g |
| COc1ccc([N+](=O)[O-])c(S(=O)(=O)c2ccc(Cl)cc2)n1 | NCI60 cell panel | cell growth | – | panel mean | – | GI50 | 6310 nM |
| COC[C@@H]([C@H](O)[C@H](O)C(=O)NCC[C@H](C)c1nc(/C=C/C[C@@H]2O[C@]3(C[C@@H](O)[C@@H]2C)O[C@H]([C@H](C[C@H](O)[C@H](C)[C@H](O)[C@H](C)/C=C(C)/C(C)=C/C=C/C(C)=C\C#N)OC)[C@H](OP(=O)(O)O)C3(C)C)co1)N(C)C | HEK-293T | Western blot, measured: mTOR, S6K, GSK3, ERK | – | 50 nM, 30 min, together with: insulin 100 nM | – | phosphorylation | increased |
| Cc1sc2c(c1C)C(c1ccc(Cl)cc1)=N[C@@H](CC(=O)OC(C)(C)C)c1nnc(C)n1-2 | rat cardiac fibroblasts | MTT | – | 0.2 µM, 1 h pretreatment then 12 or 24 h, together with: angiotensin II | – | cell proliferation | inhibited |
| CNC(=O)[C@H](Cc1c[nH]c2ccccc12)NC(=O)[C@@H](CC(=O)NO)CC(C)C | NIH3T3 in SKOV/NIH microtissues | fibroblast toxicity | – | chronic toxicity, unit not given | relative to: AC50 ATP over AC50 NanoLUC, day 7 | therapeutic window | 3.01 |
| COc1cc(-n2nnnc2-c2ccccc2)cc(OC)c1OC | HeLa, A549, HL-60, MCF7, HT-29 | cell growth | – | all lines except Jurkat | – | IC50 | > 900 nM |
| YPKPVYIPQPRPPHPRL | Escherichia coli T7 Express LysY/Iq | bacterial growth, intracellular expression, IPTG induction | peptide | 7.2 h, 37 °C | more negative = more potent | SAMP-Dep slope | -15 M⁻¹ min⁻¹ |
| CCCCc1oc2ccccc2c1C(=O)c1cc(I)c(OCCN(CC)CC)c(I)c1 | BHK | LBPA-positive structure number and size, confocal morphometry | – | 16 h | – | effective concentration | 2 µM |
| antisauvagine-30 | rat hippocampal pyramidal neurons | measured: pCREB Ser133 | – | 100 nM, 30 min pretreatment, together with: urocortin 40 nM, 15 min | – | UCN-induced CREB phosphorylation | no effect |
| amyloid beta-42 Met35-sulfone | rat primary hippocampal neurons | LDH release | – | 10 µM, 48 h | relative to: medium control | viability decrease | 23 ± 3% |
| NNC(=O)Cn1c2ccccc2c2cn[nH]c(=O)c21 | MCF7 | RT-PCR, measured: AKT | – | 5 µM, 48 h, normalised to β-actin | relative to: untreated | fold change | 0.283 |
| CC(C)=CCC/C(C)=C/Cc1c(O)cc(/C=C/c2cc(O)c3c(c2)C[C@@H]2C(C)(C)[C@H](O)[C@H](O)C[C@@]2(C)O3)cc1O | CHO NPC1-/- (M12) | – | – | concentration not given | relative to: wild-type CHO | antiproliferative activity change | no effect |
| CC(C)=CC[C@@H](O)C1=CC(=O)c2c(O)ccc(O)c2C1=O | NIH3T3 in HEY/NIH microtissues | fibroblast toxicity | – | 168 h, chronic toxicity, unit not given | relative to: AC50 ATP over AC50 NanoLUC, day 7 | therapeutic window | 1.61 |
| Cc1ccc(NS(=O)(=O)c2ccc3c(c2)C2OCCC2C(c2ccc(C(=O)C(C)C)cc2)N3)cc1C (centres unmarked) | EU-1 | western blot | – | 1 µM | – | time to caspase and PARP cleavage | 8 h |
| COC(=O)C1=CO[C@@H](O)[C@@H]2C(CO)=CC[C@H]12 | SK-N-SH | neuroprotection, MTT | – | 0.6 µM, 24 h, together with: 250 µM H2O2 | – | viability | 64.4 ± 0.5% |

| Molecule | tested on | test | system | conditions | how to read | quantity | result |
| --- | --- | --- | --- | --- | --- | --- | --- |
| CC[C@H](C)[C@H](NC(=O)[C@@H](NC(=O)[C@@H](N)C(C)C)C(C)C)C(=O)N[C@@H](C)C(=O)O | PC-12 (differentiated) | MTT and LDH | – | concentration not given, MTT 24 h, LDH 48 h, together with: staurosporine 0.2 µM | – | cell death | no effect |
| N.N.[Cl][Pt][Cl] | SGC-7901/DDP (compound-resistant) | cell viability, CCK-8 | – | – | – | IC50 | 5030 ± 199 nM |
| pertussis toxin | rat hippocampal pyramidal neurons | measured: pCREB Ser133 | – | 500 ng/mL, 18 h pretreatment, together with: CRF 40 nM | – | CRF-induced CREB phosphorylation | no effect |
| O=C(Nc1ccc([N+](=O)[O-])cc1O)Nc1ccccc1Br | human classical CD14++CD16- monocytes | flow chamber | – | 100 nM, 15 min pretreatment, together with: TNF-activated HUVEC | – | monocyte adhesion | no effect |
| [Met(O)35]Aβ42 | rat primary hippocampal neurons | MTT | – | 10 µM, 48 h | relative to: medium control | viability decrease | 34 ± 1% |
| COc1cc(/C=C/C(=O)N2CCC=CC2=O)cc(OC)c1OC | MDA-MB-468 | RT-qPCR, measured: Bcl-2, Bcl-xL, survivin, XIAP, cIAP | – | concentration not given, 6 to 8 h | – | mRNA level decrease | 20 to 68% |
| OCc1cc(C(O)CNCCCCCCOCCCCc2ccccc2)ccc1O (centres unmarked) | U2OS | NAADP-evoked Ca2+ release | – | 10 µM, 10 min pretreatment, together with: NAADP 100 nM microinjected | relative to: NAADP alone | Ca2+ transient amplitude | 26.7 ± 7.2% |
| N.N.[Cl][Pt][Cl] | myeloid leukemia cells | trypan blue | – | 48 h | – | GI50 | 10000 ± 3700 nM |
| C[C@@H]1C[C@H]2[C@@H]3CCC4=CC(=O)C=C[C@]4(C)[C@@]3(F)[C@@H](O)C[C@]2(C)[C@@]1(O)C(=O)CO | mouse splenocytes | IL-5 production, ELISA | – | 0.005 µM, together with: ovalbumin | relative to: OVA-stimulated control | inhibition | > 80% |
| CC(C)c1cc2c(c(O)c1O)[C@@]1(C(=O)O)CCCC(C)(C)[C@@H]1CC2 | mES-D3 cell | cardiomyocyte differentiation, RT-PCR, measured: MHC | – | 240 h | – | ID50 | 6.14 ± 0.575 µg/mL (≈ 18.5 µM) |
| [Met(O)35]Aβ42 | rat primary hippocampal neurons | – | – | 3 µM, 72 h | relative to: medium-treated | dendritic spine density | ~70% |
| COc1ccc2[nH]cc(CCNc3nccc(Nc4cccc5c4ccn5C)n3)c2c1 | ECFC and ADSC co-culture | endothelial tube formation | – | highest concentration tested | relative to: VEGF 20 ng/mL | maximal cord disruption | > 96% |
| CC(C)c1ccc2c(c1)CC[C@H]1[C@](C)(CN)CCC[C@]21C | WM-115 | cell growth or viability, MTS | – | 72 h | – | IC50 | 2410 nM |
| RRRRRRRRGGTTLFF | Jurkat | – | peptide | concentration not given, spontaneous | – | cell proliferation | decreased |
| leucinostatin B2 | MDA-MB-231 resistant | sulforhodamine B | – | 48 h | – | GI50 | > 100 nM |
| CCCCCCCCCC(=O)NC(CN1CCOCC1)C(O)c1ccccc1.Cl (centres unmarked) | U2OS | NAADP-evoked Ca2+ release | – | 10 µM, 10 min pretreatment, together with: NAADP 100 nM microinjected | relative to: NAADP alone | Ca2+ transient amplitude | 43.7 ± 15% |
| leucinostatin F | MDA-MB-231 resistant | sulforhodamine B | – | 48 h | – | GI50 | > 100 nM |
| NC12CC3CC(CC(C3)C1)C2 | dendritic cells | flow cytometry | – | 10 µg/mL, 24 h | relative to: untreated cells | TNF-alpha expression | increased |
| leucinostatin A2 | SUM185PE | sulforhodamine B | – | 48 h, LAR subtype TNBC | – | GI50 | 4.4 ± 0.7 nM |
| CN1C(=CC=CC=CC2=[N+](CCCCCC(=O)NCCCC[C@H](NC(=O)[C@H](CCCCNC(=O)COCCOCCOCCNC(=O)[C@H](Cc3ccccc3)NC(=O)[C@H](CCCNC(=N)N)NC(=O)[C@@H]3CCCN3C(=O)[C@H](CC(N)=O)NC(=O)[C@@H]3CCCN3C(=O)[C@H](CO)NC(=O)[C@@H](N)CCCCN)NC(=O)COCCOCCOCCNC(=O)[C@H](CCC(=O)O)NC(=O)[C@H](CCCNC(=N)N)NC(=O)[C@@H]3CCCN3C(=O)[C@H](CCCCN)NC(=O)[C@H](Cc3c[nH]cn3)NC(=O)[C@H](CCCNC(=N)N)NC(=O)[C@@H](N)CCC(N)=O)C(N)=O)c3ccc4ccccc4c3C2(C)C)C(C)(C)c2c1ccc1ccccc21 | OE33 | flow cytometry | – | 1 h, 4 °C | – | Kd | 23 nM |

Repeated from above:
| Molecule | tested on | test | system | conditions | how to read | quantity | result |
| --- | --- | --- | --- | --- | --- | --- | --- |
| CC(C)c1ccc2c(c1)CC[C@H]1[C@](C)(CN)CCC[C@]21C | WM-115 | cell growth or viability, MTS | – | 72 h | – | IC50 | 2410 nM |
| CCCCc1oc2ccccc2c1C(=O)c1cc(I)c(OCCN(CC)CC)c(I)c1 | BHK | LBPA-positive structure number and size, confocal morphometry | – | 16 h | – | effective concentration | 2 µM |
| CC(C)c1cc2c(c(O)c1O)[C@@]1(C(=O)O)CCCC(C)(C)[C@@H]1CC2 | mES-D3 cell | cardiomyocyte differentiation, RT-PCR, measured: MHC | – | 240 h | – | ID50 | 6.14 ± 0.575 µg/mL (≈ 18.5 µM) |
| leucinostatin F | MDA-MB-231 resistant | sulforhodamine B | – | 48 h | – | GI50 | > 100 nM |
| COC(=O)C1=CO[C@@H](O)[C@@H]2C(CO)=CC[C@H]12 | SK-N-SH | neuroprotection, MTT | – | 0.6 µM, 24 h, together with: 250 µM H2O2 | – | viability | 64.4 ± 0.5% |
